Assay results pooled from the literature.
Each line is one published result; not all experiments were run side by side. ± gives the spread as reported.

SMILES | test | system | setting | how to read | endpoint | value
NNC(=O)c1ccccc1 | hydrazine ligation kinetics, absorbance | – | concentration not given, 30 s, with: 2-formylphenylboronic acid | – | normalised absorbance | 0.701
CCN(Cc1ccccc1)C(=O)CCc1nc(CN2CCN(C(=O)Cc3ccc(OC)c(OC)c3)CC2)no1 | current clamp | DRG neurons, naive rat | 10 µM | – | action potential amplitude | 71.2 ± 8.48 mV
COc1ccccc1-c1n[nH]c2nc(NC3CCN(C(=O)Cc4ccc(F)cc4F)CC3)ncc12 | bead binding, competition bead pull-down, refers to: LINJ.25.0940 | Leishmania donovani extract | 10 µM | relative to: vehicle | relative abundance | 0.85
CCc1nnc(-c2c(OC)cc(-c3cnc4cc(-c5cnn(C)c5)ccn34)cc2OC)o1 | histomorphometry | male C57BL/6J mouse, tibia | oral gavage, 10 mg/kg once daily, 3 wk | – | mineralizing surface/bone surface | 0.729 ± 0.09%
CC(C)C[C@@H]1NC(=O)[C@@H](Cc2c[nH]c3ccccc23)NC(=O)[C@H](CCCNC(=N)N)NC(=O)[C@@H](CCC(=O)O)NC(=O)[C@H](CCC(N)=O)NC(=O)[C@@H](CCC(=O)O)NC(=O)[C@H](CCCNC(=N)N)NC(=O)[C@@H](Cc2c[nH]c3ccccc23)NC1=O | Luminex, refers to: G-CSF | LDLr-/- mice, Western diet, liver | dose not given, 4 weeks | – | cytokine level | 380 ± 150 pg/g tissue
O=C1NC2(CC2)COc2ncc(F)cc2[C@H]2COCCN2c2ccn3ncc1c3n2 | – | Sprague-Dawley rat, female, thymus | oral, 20 mg/kg/day, 4 weeks | – | organ weight | 0.517 ± 0.129 g
C[C@H](NCc1ccc(-c2ccc(C(F)(F)F)cc2)cc1)C(N)=O | passive avoidance retention | APP/PS1 mice | oral, 10 mg/kg, 336 h, 2 weeks treatment | – | step-through latency | 314 ± 66.5 s
CO[C@H]1CC=C2CCN3CCC4=C(CC(=O)CC4)[C@]23C1 | intermittent two-bottle choice | Wistar rat, 20% ethanol drinking | subcutaneous, 10 mg/kg, 24 h | relative to: ethanol over total fluid intake | ethanol preference | 46 ± 4%
COc1ccccc1-c1n[nH]c2nc(N[C@H]3CC[C@H](NS(=O)(=O)CC(C)C)CC3)ncc12 | bead binding, competition bead pull-down, refers to: LINJ.35.1420 | Leishmania donovani extract | 10 µM | relative to: vehicle | relative abundance | 1.08
CCCC[C@@H]1NC(=O)[C@H](Cc2ccc(O)cc2)NC(=O)[C@@H]2CCCN2C(=O)[C@H](CC(=O)O)NC(=O)[C@H](C)NC(=O)[C@H](Cc2ccccc2)NC(=O)[C@@H]2CSCCC(=O)N3CN(CN(C3)C(=O)CCSC[C@@H](C(=O)N[C@@H](C)C(N)=O)NC1=O)C(=O)CCSC[C@H](NC(C)=O)C(=O)N[C@@H](CC(C)(C)C)C(=O)N1CCC[C@H]1C(=O)N[C@@H](CCC(=O)O)C(=O)N[C@H](CCCCNC(=O)CCc1cn(CCOCCOCCOCCN(CCOCCOCCOCCC(=O)N[C@H]3CSCCC(=O)N4CN5CN(C4)C(=O)CCSC[C@H](NC(=O)[C@@H](CC(=O)O)NC(=O)[C@H](Cc4cccc6ccccc46)NC(=O)[C@@H]4CCCN4C3=O)C(=O)N[C@@H](CCSC)C(=O)N[C@@H](CCCCNC(=N)N)C(=O)N[C@@H](CC(=O)O)C(=O)N[C@@H](Cc3c[nH]c4ccccc34)C(=O)N[C@@H](CO)C(=O)N[C@@H]([C@@H](C)O)C(=O)N3CCC[C@H]3C(=O)N3C[C@H](O)C[C@H]3C(=O)N[C@@H](Cc3c[nH]c4ccccc34)C(=O)N[C@H](C(N)=O)CSCCC5=O)CCOCCOCCOCCn3cc(CCC(=O)NCCCC[C@H]4NC(=O)[C@H](CCC(=O)O)NC(=O)[C@@H]5CCCN5C(=O)[C@H](CC(C)(C)C)NC(=O)[C@@H](NC(C)=O)CSCCC(=O)N5CN6CN(C5)C(=O)CCSC[C@H](NC(=O)[C@H](Cc5ccc(O)cc5)NC(=O)[C@@H]5CCCN5C4=O)C(=O)N[C@@H](Cc4ccccc4)C(=O)N[C@@H](C)C(=O)N[C@@H](CC(=O)O)C(=O)N4CCC[C@H]4C(=O)N[C@@H](Cc4ccc(O)cc4)C(=O)N[C@@H](CCCC)C(=O)N[C@H](C(=O)N[C@@H](C)C(N)=O)CSCCC6=O)nn3)nn1)C(=O)N1CCC[C@H]1C(=O)N[C@@H](Cc1ccc(O)cc1)C(=O)N2 | NanoString, refers to: Fcgr2b-mRNA | mouse bearing MC38-Nectin-4 tumour, circulating white blood cells | 5 mg/kg, 24 h after dosing, unit not given | relative to: vehicle | mRNA level | 1.93

For quick reference, copied from above:
SMILES | test | system | setting | how to read | endpoint | value
O=C1NC2(CC2)COc2ncc(F)cc2[C@H]2COCCN2c2ccn3ncc1c3n2 | – | Sprague-Dawley rat, female, thymus | oral, 20 mg/kg/day, 4 weeks | – | organ weight | 0.517 ± 0.129 g
